Results of several laboratories.
Parts stem from different laboratories: compare values within a part only. Several values in a cell are separate wells, animals, samples, runs or records. Numbers after ± are the reported error.
Sequence of UniProt Q13873 (whole entry, looked up): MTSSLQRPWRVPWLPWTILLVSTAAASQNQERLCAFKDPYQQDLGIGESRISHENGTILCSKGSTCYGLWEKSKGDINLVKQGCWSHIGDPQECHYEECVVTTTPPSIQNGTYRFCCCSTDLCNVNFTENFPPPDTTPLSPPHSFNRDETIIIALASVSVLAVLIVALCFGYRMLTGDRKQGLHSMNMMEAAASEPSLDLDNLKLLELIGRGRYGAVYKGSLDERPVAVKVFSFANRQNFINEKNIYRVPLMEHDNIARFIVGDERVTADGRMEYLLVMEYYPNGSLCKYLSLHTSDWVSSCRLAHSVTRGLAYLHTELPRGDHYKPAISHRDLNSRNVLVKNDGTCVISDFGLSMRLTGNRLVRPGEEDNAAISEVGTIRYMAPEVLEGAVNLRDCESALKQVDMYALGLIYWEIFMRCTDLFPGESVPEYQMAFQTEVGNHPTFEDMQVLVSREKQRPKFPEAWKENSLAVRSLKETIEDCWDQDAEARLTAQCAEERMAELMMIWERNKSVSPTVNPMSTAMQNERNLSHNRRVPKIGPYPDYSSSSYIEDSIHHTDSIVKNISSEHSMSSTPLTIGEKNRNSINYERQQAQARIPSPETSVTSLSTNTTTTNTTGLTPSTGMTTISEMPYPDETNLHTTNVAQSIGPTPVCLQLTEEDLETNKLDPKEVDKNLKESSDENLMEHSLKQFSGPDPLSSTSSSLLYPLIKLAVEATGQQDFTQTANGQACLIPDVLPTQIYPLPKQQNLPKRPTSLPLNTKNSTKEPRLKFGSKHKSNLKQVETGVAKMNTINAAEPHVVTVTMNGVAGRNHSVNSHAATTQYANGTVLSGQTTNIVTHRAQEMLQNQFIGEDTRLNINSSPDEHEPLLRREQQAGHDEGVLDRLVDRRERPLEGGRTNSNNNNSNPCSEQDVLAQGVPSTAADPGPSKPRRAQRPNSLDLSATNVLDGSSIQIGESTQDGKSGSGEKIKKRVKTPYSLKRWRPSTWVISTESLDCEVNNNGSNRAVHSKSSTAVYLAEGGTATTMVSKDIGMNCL
Sequence of UniProt Q86YV6 (whole entry, looked up): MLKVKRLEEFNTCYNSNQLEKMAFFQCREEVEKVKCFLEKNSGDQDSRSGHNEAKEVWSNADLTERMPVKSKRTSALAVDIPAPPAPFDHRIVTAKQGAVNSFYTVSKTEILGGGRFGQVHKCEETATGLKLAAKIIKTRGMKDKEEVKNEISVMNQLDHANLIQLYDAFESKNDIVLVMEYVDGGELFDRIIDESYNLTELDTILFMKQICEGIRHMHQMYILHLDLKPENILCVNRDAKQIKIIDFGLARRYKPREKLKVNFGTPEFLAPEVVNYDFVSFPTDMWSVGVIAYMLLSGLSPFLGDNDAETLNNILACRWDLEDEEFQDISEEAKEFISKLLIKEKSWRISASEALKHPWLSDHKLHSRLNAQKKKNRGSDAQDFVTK
Sequence of UniProt Q9H0K1 (whole entry, looked up): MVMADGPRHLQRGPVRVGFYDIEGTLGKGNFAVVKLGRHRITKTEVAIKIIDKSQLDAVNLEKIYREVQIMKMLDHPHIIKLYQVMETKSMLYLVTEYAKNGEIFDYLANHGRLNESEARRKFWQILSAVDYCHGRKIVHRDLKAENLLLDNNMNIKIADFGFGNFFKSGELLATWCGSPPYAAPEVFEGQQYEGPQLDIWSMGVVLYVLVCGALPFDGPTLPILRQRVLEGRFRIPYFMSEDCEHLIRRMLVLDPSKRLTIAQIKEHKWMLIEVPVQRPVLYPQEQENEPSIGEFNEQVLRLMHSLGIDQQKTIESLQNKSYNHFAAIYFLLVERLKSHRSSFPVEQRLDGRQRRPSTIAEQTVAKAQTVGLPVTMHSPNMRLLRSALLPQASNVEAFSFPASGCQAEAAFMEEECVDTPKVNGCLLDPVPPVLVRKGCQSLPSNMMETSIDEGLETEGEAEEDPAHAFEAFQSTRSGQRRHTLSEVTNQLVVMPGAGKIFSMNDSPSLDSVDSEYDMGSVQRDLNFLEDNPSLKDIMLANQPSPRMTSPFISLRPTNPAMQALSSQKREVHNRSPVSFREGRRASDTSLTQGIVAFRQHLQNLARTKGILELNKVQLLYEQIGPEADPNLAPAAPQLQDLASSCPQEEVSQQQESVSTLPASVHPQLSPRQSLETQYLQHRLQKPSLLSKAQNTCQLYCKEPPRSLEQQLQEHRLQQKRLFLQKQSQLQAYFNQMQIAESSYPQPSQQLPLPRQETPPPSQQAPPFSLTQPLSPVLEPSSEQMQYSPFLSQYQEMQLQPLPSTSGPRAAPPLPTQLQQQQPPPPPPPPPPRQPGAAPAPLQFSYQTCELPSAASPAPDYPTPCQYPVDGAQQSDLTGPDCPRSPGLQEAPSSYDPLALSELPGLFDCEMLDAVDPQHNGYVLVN
Sequence of UniProt Q9H1R3 (whole entry, looked up): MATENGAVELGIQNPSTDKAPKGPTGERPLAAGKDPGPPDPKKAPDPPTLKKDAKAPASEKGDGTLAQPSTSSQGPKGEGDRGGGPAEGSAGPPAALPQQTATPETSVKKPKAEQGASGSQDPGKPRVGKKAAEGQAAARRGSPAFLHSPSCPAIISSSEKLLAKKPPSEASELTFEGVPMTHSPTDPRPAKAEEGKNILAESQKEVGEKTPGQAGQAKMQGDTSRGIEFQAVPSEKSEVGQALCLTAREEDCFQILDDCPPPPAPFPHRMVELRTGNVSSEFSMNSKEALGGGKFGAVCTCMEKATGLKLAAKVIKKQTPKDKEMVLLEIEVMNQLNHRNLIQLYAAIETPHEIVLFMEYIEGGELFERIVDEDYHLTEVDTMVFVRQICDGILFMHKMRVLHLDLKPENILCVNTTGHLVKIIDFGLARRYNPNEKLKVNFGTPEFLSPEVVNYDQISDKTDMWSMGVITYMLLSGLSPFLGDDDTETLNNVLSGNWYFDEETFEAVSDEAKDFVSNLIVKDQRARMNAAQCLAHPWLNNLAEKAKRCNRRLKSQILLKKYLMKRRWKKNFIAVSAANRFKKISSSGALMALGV

Block 1
Target: Platelet-derived growth factor receptor beta (PDGFRB, Homo sapiens, UniProt P09619)
Sequence of UniProt P09619 (whole entry, looked up): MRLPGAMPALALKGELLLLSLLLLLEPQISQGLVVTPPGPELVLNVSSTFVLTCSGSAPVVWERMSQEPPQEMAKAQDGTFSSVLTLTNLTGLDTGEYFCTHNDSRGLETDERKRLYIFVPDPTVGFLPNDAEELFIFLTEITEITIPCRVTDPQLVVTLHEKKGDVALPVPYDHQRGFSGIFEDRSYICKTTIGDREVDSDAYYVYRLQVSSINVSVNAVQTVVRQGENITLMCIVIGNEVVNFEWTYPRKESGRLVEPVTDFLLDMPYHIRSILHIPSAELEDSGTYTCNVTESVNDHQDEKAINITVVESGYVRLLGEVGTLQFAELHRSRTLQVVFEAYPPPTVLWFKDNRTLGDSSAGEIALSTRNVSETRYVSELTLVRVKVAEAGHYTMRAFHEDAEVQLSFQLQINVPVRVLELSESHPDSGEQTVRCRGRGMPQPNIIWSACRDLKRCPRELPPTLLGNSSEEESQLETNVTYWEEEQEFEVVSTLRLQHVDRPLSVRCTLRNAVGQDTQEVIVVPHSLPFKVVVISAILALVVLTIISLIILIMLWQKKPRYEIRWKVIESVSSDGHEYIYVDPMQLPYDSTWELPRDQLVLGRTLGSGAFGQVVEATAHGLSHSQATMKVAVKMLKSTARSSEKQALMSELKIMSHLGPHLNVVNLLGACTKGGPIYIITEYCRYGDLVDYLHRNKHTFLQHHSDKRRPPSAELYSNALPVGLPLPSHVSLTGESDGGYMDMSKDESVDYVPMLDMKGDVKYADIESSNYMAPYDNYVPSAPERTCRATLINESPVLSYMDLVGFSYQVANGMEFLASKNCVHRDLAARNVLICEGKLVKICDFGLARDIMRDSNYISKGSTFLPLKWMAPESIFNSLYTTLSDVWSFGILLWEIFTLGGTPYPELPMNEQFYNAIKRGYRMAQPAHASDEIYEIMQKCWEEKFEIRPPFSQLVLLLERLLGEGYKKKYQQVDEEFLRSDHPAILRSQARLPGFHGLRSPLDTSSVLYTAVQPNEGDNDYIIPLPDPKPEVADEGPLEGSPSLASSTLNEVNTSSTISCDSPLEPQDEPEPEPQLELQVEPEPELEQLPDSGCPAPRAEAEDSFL
Read-out: enzyme activity
Mode: inhibitor
Concentration: 0.5 µM
Relative to: control
Quantity: remaining activity
CSc1nc(-c2ccnc(N[C@@H](C)c3ccccc3)c2)c(-c2ccc(F)cc2)[nH]1 (racemic): 97.6%
Oc1ccc(Nc2nc(-c3ccc(Cl)cc3)cs2)cc1: 107%
Nc1nccc(-c2c(-c3ccc(F)cc3)ncn2C2CCNCC2)n1: 98.7%
Cc1cncc2cccc(S(=O)(=O)N3CCCN(C(=O)CN)C[C@@H]3C)c12: 104%
O=S(=O)(NCCNC/C=C/c1ccc(Br)cc1)c1cccc2cnccc12: 112%
O=C1NC(=O)C(c2c[nH]c3ccccc23)=C1c1c[nH]c2ccccc12: 95.6%
Cc1ccc(NC2=CC(=O)c3sc(C)nc3C2=O)cc1: 94.5%
COc1ccc(S(=O)(=O)N(CCO)c2ccccc2CN(C)CC=Cc2ccc(Cl)cc2)cc1: 104%
O=C1Cc2c([nH]c3ccc([N+](=O)[O-])cc23)-c2ccccc2N1: 87.4%
CCc1[nH]c(-c2ccc(OC)cc2)nc1-c1ccncc1: 105%
Fc1ccc(-c2nc3n(c2-c2ccncc2)CCS3)cc1: 107%
CCCC(=O)Oc1ccc2[nH]c(C(=O)c3cc4ccccc4[nH]3)cc2c1: 91.2%
Nc1ncnc2c1cnn2-c1ccccc1: 94.7%
CC[n+]1c(/C=C/N(C)c2ccccc2)n(-c2ccccc2)c2ccc(-c3nc4ccccc4s3)cc21: 102%
NC(=O)c1ccc(N(C(N)=O)c2c(F)cccc2F)nc1-c1ccc(F)cc1F: 62.8%
CC(C)(C)n1nc(Cc2cccc3ccccc23)c2c(N)ncnc21: 83.3%
N#CC(=C(N)Sc1ccc(N)cc1)c1ccccc1C(F)(F)F: 103%
Nc1nc(Nc2ccc(S(N)(=O)=O)cc2)nn1C(=O)c1c(F)cccc1F: 89.1%
Cc1cc(Nc2nc(-c3ccccc3)nc3ccccc23)n[nH]1: 55.4%
CC#CC(=O)Nc1cc2c(Nc3ccc(F)c(Cl)c3)ncnc2cn1: 103%
COc1cc(Nc2c(C#N)cnc3cc(OCCCN4CCN(C)CC4)c(OC)cc23)c(Cl)cc1Cl: 74.8%

Block 2
Compound: Oc1ccc(-c2nc(-c3ccncc3)c(-c3ccc(F)cc3)[nH]2)cc1
Read-out: binding
Method: thermal shift
Concentration: 10 µM
Direction: higher = stronger binding
Quantity: delta Tm
Peregrin, isoform A (BRPF1, Homo sapiens, UniProt P55201): -1.22 ± 0.13 °C
BRPF3 (Homo sapiens, UniProt Q9ULD4): 0.96 ± 0.11 °C
Transcription intermediary factor 1-alpha, PHD-bromodomain (TRIM24, Homo sapiens, UniProt O15164): -0.35 ± 0.2 °C
SP140L, PHD-bromodomain (Homo sapiens, UniProt Q9H930): 0.28 ± 0.09 °C
Protein polybromo-1, BD4 (PBRM1, Homo sapiens, UniProt Q86U86): 0.78 ± 0.09 °C

Block 3
Structure (SMILES): C[C@H](NC(=O)c1cnc2n1[C@](C)(Cc1ccc(C#N)cc1)C(=O)N2c1cc(Cl)c(F)c(Cl)c1)C(=O)NC1(c2ccccn2)CC1
Read-out: cell-free assay
Method: competition with immobilised ligand
Concentration: 1 µM
Quantity: remaining binding
Receptor-type tyrosine-protein kinase FLT3, autoinhibited (FLT3, Homo sapiens, UniProt P36888): 100%
STK32C (Homo sapiens, UniProt Q86UX6): 100%
SIK2 (Homo sapiens, UniProt Q9H0K1): 100%
MAP2K4 (Homo sapiens, UniProt P45985): 100%
MYLK4 (Homo sapiens, UniProt Q86YV6): 100%
BMPR2 (Homo sapiens, UniProt Q13873): 100%
STK16 (Homo sapiens, UniProt O75716): 100%
PIK3CA (Homo sapiens, UniProt P42336, Q546K): 97%
Ribosomal protein S6 kinase alpha-2, N-terminal kinase domain (RPS6KA2, Homo sapiens, UniProt Q15349): 100%
MYLK2 (Homo sapiens, UniProt Q9H1R3): 98%
CSNK2A2 (Homo sapiens, UniProt P19784): 99%
CSNK1D (Homo sapiens, UniProt P48730): 100%
SRC (Homo sapiens, UniProt P12931): 100%
EGFR (Homo sapiens, UniProt P00533, L858R): 100%

Block 4
Cell line: mouse MPNST tumor cells
Method: high-content nuclear imaging
Refers to: cell number
Concentration: 10 µM
Time: 12 h
Setting: mean of 2 replicates
Relative to: plate mean
Direction: higher = more cells
Quantity: nuclei count
CC=CC1=C(C(=O)O)N2C(=O)[C@@H](NC(=O)[C@H](N)c3ccc(O)cc3)[C@H]2SC1: 0.525 z-score
C#CCN[C@@H]1CCc2ccccc21: 0.924 z-score and 0.49 z-score
COc1ccc(CCNCc2ccc(OCc3ccc(Cl)nc3)c(OC)c2)cc1OC: 2.67 z-score
Cc1cccc(Oc2cnc(=O)[nH]c2)c1: 0.298 z-score
CO/N=C1\CN(c2nc3c(cc2F)c(=O)c(C(=O)O)cn3C2CC2)CC1CN (centres unmarked): 1.15 z-score
CC(=O)N1CCN(C(=O)/C=C/c2ccc(Sc3ccccc3C(C)C)c([N+](=O)[O-])c2)CC1: 1.6 z-score
O=C(O)c1n[nH]c2c1CC1CC21 (centres unmarked): 2.57 z-score
NC(=O)OCC(O)COc1ccc(Cl)cc1 (centres unmarked): 0.647 z-score
Cc1nc2sccn2c(=O)c1CCN1CCC(=C(c2ccccc2)c2ccc(F)cc2)CC1: 1.91 z-score
O=C(O)[C@H](Cc1ccc(OC(=O)N2CCCC2)cc1)NC(=O)[C@@H]1CCCN1S(=O)(=O)c1ccccc1: -1.61 z-score
O=C1CCc2cc(OCCCCc3nnnn3C3CCCCC3)ccc2N1: 0.222 z-score and -0.173 z-score
CC[S+]([O-])c1nc(-c2cccc(OCc3ccccc3)c2)cc(C(F)(F)F)n1 (centres unmarked): -3.22 z-score
O=C(Nc1cccnn1)N1CCC(=Cc2cccc(Oc3ccc(C(F)(F)F)cn3)c2)CC1: -0.116 z-score
